# Experimental data pooled from the literature.
# Every numbered part comes from another study and shows a few of its results, in no order.

# Set 1 — method: RNA Bind-n-Seq; form: RNA; sample: in vitro; concentration: 365 nM; relative to: no-protein control; direction: higher = stronger binding
# Target: RNA binding protein fox-1 homolog 2, RRM domain, GST-SBP tag (RBFOX2, Homo sapiens, UniProt O43251-10, residues 100-194)
# Notes: natural RNA segment, single round, ends assumed
# Shared flanks, not repeated: GGGAGUUCUACAGUCCGACGAUC … UGGAAUUCUCGGGUGCCAA
# Target sequence (chain): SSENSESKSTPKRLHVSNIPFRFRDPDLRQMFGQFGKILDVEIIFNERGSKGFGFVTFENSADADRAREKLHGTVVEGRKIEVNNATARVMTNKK
Oligonucleotide,RBNS enrichment (R)
UUUGAAUGCUUUUGUUUCCUAAGAGAUAAUGGCAUGGUUUCAUAUGUUAUACUUUGGACAGACAGAGUUUUAAAAAUGGAAUUAUUUUUUCUUUCAUGCCUCUUGUAAUG,0.464
GCAGACCGAGUUAGUGUUUGAUGCGACUAUCUCCAUCCUUAGUAUGGAUGUGGUCAGUUCUGCACAAUUUGGUUUCAAACUAACUUUUUUUUCUUUCCUUUUUAAAAAUA,0.657
CUAAUCCCUAAAAUAGUUAGAUCUUUGUAAAUGCAUAUUAAAUAAUAAAGUAUGACCCACAUUACUUUUUAUGGGUGAAAAUAAGACAAAAAUAAUAGUUUUAGUGAGGA,0.758
GUUCAAAACCAUGUUCCAGCCUCUGGGCCAACUCAGCCACCGGUGGUGAGCUCCACAAAUGAGGGCUCCCCAUCCCCACCAGAGCCGACUGGCAAGGGCAGCCUAGACAC,0.404
AGCUGUGCGGCAUGGGCUAAGUCACUCUGCCCUUCGGAGCCUCUGGAAGCUUAGGGCACAUUGGUUCCAGCCUAGCCAGUUUCUCACCCUGGGUUGGGGUCCCCCAGCAU,0.46
UCCCCAGACCCCUGCUGCCAGCCACCAGCGCCAGCCUCGGGGACCUCCGGCCGUCCCUACCGACAGUGUUUGCCAAAGACAGGAGGCUGGAGGUGGACAGACCGCACGGU,0.468
AUUUCUUCCUGCGGUUUAUUCUAUGUUUUAUAUAUUAUCUAAAUAUAUGUAUAUGCUGUGUCAUACUCAUAAUCUGGAAAUGAAUAAAGUGAUAUAUUCCUGGUUUGUAA,0.553
AGGUGAGGGCUUUGUACACGUGUGUCCUCUGCUGUCAUGAACUUGGGCUGGACUGUGAGCAGCUCUGGGUUAAUACAGGGCAGGCAAUCCUUAAACAGCUAGCAUGAAAC,8.93
CUGGUUCUGCGGACCCAGGAAGGGCCAGGCUGGGGCCCUGCUUGUGUUUAUCCUCGGCUGCUGUCUUCCCAGCAGGCCCCAGGCAAGGAGGCUUCCCAUUGCUGCUGCUA,0.435
CACUGGGUUAUUUCUCCGUCCUCAUUGUCAUCUAGAACUAGCUUUAGGGUAGUGCCAGACAAACAUAUGAUAUCAUGGUGUAAAAAAAGAAACACAUGCGUGCAGACACA,0.208
CUGGCUUGCUGUCUGCAAGGCCCAUGUGGGCCUUUUGGCUGAAGCAUUUGUAGAAGCAGCCAUCUUCCCCCUGGUGGGGCUUUGGGGUCUAUGUUAGCCAUUUGUAUCUA,0.802
GCUUCUCUCUGCCUCAGUGUCCGGGUCUGUAAGGUGGGCAGUUGAUGAUUUGUGGCAUCUCAACCAAGGGCCCCUGUGUGUGUGUGUUUGUGUGUGUGUACACAUAUCUG,1.58

# Set 2 — method: universal PBM; form: double-stranded DNA, one strand shown; sample: in vitro; concentration: not given; direction: higher = stronger binding
# Target: Sal-like protein 4, full length isoform B (SALL4, Homo sapiens, UniProt Q9UJQ4-2, residues 1-616)
# Notes: 8-mer, flanks averaged, mean of replicates
# Residues (chain): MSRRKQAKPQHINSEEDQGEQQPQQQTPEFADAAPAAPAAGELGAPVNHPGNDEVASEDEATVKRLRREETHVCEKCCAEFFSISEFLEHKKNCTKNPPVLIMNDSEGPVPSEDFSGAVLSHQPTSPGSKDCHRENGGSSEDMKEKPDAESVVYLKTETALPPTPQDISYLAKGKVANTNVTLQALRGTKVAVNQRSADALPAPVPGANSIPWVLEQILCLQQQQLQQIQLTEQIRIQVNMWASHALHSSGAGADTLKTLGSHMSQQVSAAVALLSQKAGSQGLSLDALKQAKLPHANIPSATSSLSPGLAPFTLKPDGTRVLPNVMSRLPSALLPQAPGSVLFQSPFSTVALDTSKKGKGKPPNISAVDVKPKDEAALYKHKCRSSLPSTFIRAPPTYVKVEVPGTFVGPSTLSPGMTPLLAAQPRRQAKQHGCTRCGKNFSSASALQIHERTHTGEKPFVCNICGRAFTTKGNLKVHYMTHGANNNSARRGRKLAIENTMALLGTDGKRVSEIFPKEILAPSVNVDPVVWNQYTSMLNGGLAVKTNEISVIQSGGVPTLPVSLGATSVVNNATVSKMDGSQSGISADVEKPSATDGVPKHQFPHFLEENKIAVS
Oligonucleotide,E-score
GCTCTTGA,-0.104
CATTACAC,0.104
GTGTGTTA,0.226
GACATTGA,0.0139
CCCGTAGA,-0.268
CATATTAA,0.417
TACACAGA,0.227
ACTCCAAC,-0.0838
CGGGCCCC,-0.422
AATTGCAC,0.0505
CTAGACAA,-0.0032
ATCTCCTC,-0.039
CGTCTTAC,-0.0116
GCCCCCAC,-0.228
TACTATAA,0.281
AAGGGCCC,-0.233
AAGACCGG,-0.294
ATACTATG,0.227
CACACCAC,-0.026
GATTGAAC,-0.0382
ACACCTTC,0.00655
CCTGCTCC,-0.17
ACAACGCC,-0.0154
AGGTTAAC,0.121

# Set 3 — method: protein-binding microarray; form: double-stranded DNA, one strand shown; sample: in vitro; concentration: 250 nM; notes: 60-bp whole probe; with: salmon DNA 0.4 mg/ml; relative to: random background probes; direction: higher = stronger binding; shared flanks, not repeated: GCCTAGCAC … GTCTTGATTCGCTTGACGCTGCTG
# Target: Interferon regulatory factor 5, full length, phosphomimetic (IRF5, Homo sapiens, UniProt Q13568-2, residues 1-514, K96S/S451D/S453D/S456D/S462D)
Oligonucleotide,log fluorescence [z-score]
TTAGTTTTCGGGTATCGGTTAGTGCTA,8.14
AGACCTTCACCTCTCTGTCCGTGCTAG,0.11
GACGGGATCGGTTTCGGGACGTGCTAG,3.39
TTAGGTTTTGACTATCGGTTAGTGCTA,6.74
TTAGGACTGGGTATCGGTTGGTGCTAG,3.28
TTAGATATCGGGTATTGATTAGTGCTA,2.49
CGGAATTTCCCTCTGCTCCTGTGCTAG,0.714
TTAGGTCTGGACACTGGGTTAGTGCTA,-0.472
TTAGATCTCAATCTCGATTAGTGCTAG,0.569
GACGGACTGGGGTATCGGGGCGTGCTA,-0.12
TTAGGTTTCGGGTAACGGTTAGTGCTA,8.85
TCATTTTTCTGATTGAAACTGTGCTAG,1.58
GACGGTTTCCTTTCGCTGACGTGCTAG,4.2
TCATCTTTCCCTGCCCCACTGTGCTAG,0.565
TTAGGCTTCGGGTTTCGGTTAGTGCTA,7.17
TTAGGTATCGGACTGCGTTAGTGCTAG,1.51
GCCGATATCGGGTATCGAGACGTGCTA,3.9
TTAGGTATCGATTTTCGGTTAGTGCTA,8.82
TTAGGACGGGACTTTCGGTTAGTGCTA,9.74
TTCCATTTCTGTTTTTGCTTGTGCTAG,3.78
TTAGATCTCAGGCTCGATTAGTGCTAG,-0.333
TTCGAACTGGGGTATCGATTAGTGCTA,2.45
CTAGTTTTACTTTCTATGTCGTGCTAG,5.1
AAAGATATAAATGTAACATGGTGCTAG,0.262
CAACTTTTTTTAATTGAGAAGTGCTAG,0.461

# Set 4 — method: RNA Bind-n-Seq; form: RNA; sample: in vitro; concentration: 200 nM; notes: whole 134-nt RNA, ends assumed; with: 150 mM KCl; relative to: input library; direction: higher = stronger binding
# Target: Ras GTPase-activating protein-binding protein 1, full length (G3BP1, Homo sapiens, UniProt Q13283)
# UniProt Q13283, sequence (whole entry, looked up): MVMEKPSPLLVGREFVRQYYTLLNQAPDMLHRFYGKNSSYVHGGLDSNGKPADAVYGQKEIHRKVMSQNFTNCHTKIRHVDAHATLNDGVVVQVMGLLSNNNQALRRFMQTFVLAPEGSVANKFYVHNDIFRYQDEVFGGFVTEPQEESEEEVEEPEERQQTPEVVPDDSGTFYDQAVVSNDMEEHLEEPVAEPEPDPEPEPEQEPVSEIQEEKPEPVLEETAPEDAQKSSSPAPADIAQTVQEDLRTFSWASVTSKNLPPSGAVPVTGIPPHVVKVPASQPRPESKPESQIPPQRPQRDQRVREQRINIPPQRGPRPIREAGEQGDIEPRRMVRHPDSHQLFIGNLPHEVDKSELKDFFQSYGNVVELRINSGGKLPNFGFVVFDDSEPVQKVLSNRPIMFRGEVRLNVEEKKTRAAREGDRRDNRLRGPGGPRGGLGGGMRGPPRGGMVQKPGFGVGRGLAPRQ
# Shared flanks, not repeated: GGGAGUUCUACAGUCCGACGAUC … UGGAAUUCUCGGGUGUCAAGG
Oligonucleotide,log2 enrichment
GUCCUGUGCUACACAUCGUAUGUACCGAAUCGGGUUUUUGGGUUUUUGGGGUUUUUGGAAAGUAUUAUGUUACGCCGUUCGGAUCUGCAC,-0.523
UGGCCCUGGUGGCAUGCGGGGAGGAAGAGGUGGCCUCAUGGAUCGUGGUGGUCCCGGUGGAAUGUUCAGGGGUGGCCGUGGUGGAGACAG,0.311
GUCCUGUGCUACACAUCGUAUGUACCGAAUCGGAAAAAAGGAAAAAAGGGGAAAAAAGGAAAGUAUUAUGUUACGCCGUUCGGAUCUGCA,-0.823
CUCAAGUCCUGUGCUACACAUCGUAUGUACCGAAUCGGGGAAGGGAAGGAAGGAAAGUAUUAUGUUACGCCGUUCGGAUCUGCACUUCCA,-0.0981
CACAGACGACACGCACCCACACAGACACAGAGGGAAGGGGUUGGGAUGGGGACAGGGUGCACAGCAGGGCGGGGUAGGACCCCAGCCCCU,1.83
CCUGUGCUACACAUCGUAUGUACCGAAUCGGGGAAAAAAGGGGAAAAAAGGGAAAAAAGGGAAAGUAUUAUGUUACGCCGUUCGGAUCUG,-0.28
AAGUCCUGUGCUACACAUCGUAUGUACCGAAUCGGUGGUUUUUUUGGUUUUUUUGGAAAGUAUUAUGUUACGCCGUUCGGAUCUGCACUU,-1.36
ACCAUGCAGGUGGGCAUCUUUGGGAAGUGGGGCAAGGGGGGGAUAGGGAGGGGGGUAACACUUCGGGAACAGGUGGUCCCAGGUCGUUUC,1.31
UCAAGUCCUGUGCUACACAUCGUAUGUACCGAAUCGGGGUUGGGGUUGGUUGGGGAAAGUAUUAUGUUACGCCGUUCGGAUCUGCACUUC,0.422
CCUCAAGUCCUGUGCUACACAUCGUAUGUACCGAAUCGGGUGGGGUGGGUGGGAAAGUAUUAUGUUACGCCGUUCGGAUCUGCACUUCCA,1.38
AGUCCUGUGCUACACAUCGUAUGUACCGAAUCAAACCCCCAAACCCCCAAACCCAAAAAAGUAUUAUGUUACGCCGUUCGGAUCUGCACU,-0.444
AAGUCCUGUGCUACACAUCGUAUGUACCGAAUCAAACCCAAAUUUUUAAACCCAAAAAAGUAUUAUGUUACGCCGUUCGGAUCUGCACUU,-0.603
GCAGGAAGUAAAAACAAAUGGAAAUGCUUCGGAUAGUGGCAGGGGUGGGGGUUGCUAAGGAAAGGGUGGGAUGGGAGUGGGUAAAGAGGU,1.18
GUCCUGUGCUACACAUCGUAUGUACCGAAUCGGGGUUUUUGGGGUUUUUGGGGAGGGGAAAGUAUUAUGUUACGCCGUUCGGAUCUGCAC,0.403

# Set 5 — method: protein binding microarray; form: double-stranded DNA, one strand shown; sample: in vitro; concentration: not given; relative to: not given; direction: higher = stronger binding
# Target: Histone acetyltransferase KAT6A, winged helix 1, GST fusion (KAT6A, Homo sapiens, UniProt Q92794, residues 1-85)
# Notes: 8-mer, flanks averaged, mean of 2 arrays, mostly near background
# Construct (chain): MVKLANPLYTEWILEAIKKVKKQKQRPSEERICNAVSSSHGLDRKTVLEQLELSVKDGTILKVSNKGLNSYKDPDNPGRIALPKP
Oligonucleotide,E-score
AGCTCAAA,-0.127
AATGAGTG,-0.22
AATTATCC,0.0273
ATTGTTGG,-0.149
GGTGAGCA,-0.163
ACCAGCCT,-0.163
CACGCATC,0.231
AGTGATAG,-0.235
CAGTGACC,-0.0851
GGCCAATA,0.0142
CCGTAAGC,0.207
CCGCTCCA,0.123
CAGATGCA,-0.266
TAACACCA,-0.212
CCGGACGA,-0.0246
TAGCGTAA,0.148
GCGTCTCA,0.183
CAAGCGAA,-0.0806
TGATCACA,-0.0865
ATAATAGA,-0.169
ATGTTCGG,-0.0117
CTGATAGC,0.0833
ACTCACAT,-0.267
AAAAGCAT,-0.118
CACTTCAG,-0.249

# For quick reference, copied from above (set 3):
Oligonucleotide,log fluorescence [z-score]
AAAGATATAAATGTAACATGGTGCTAG,0.262
TTAGATCTCAATCTCGATTAGTGCTAG,0.569
CAACTTTTTTTAATTGAGAAGTGCTAG,0.461
TTAGTTTTCGGGTATCGGTTAGTGCTA,8.14
TTAGGTATCGATTTTCGGTTAGTGCTA,8.82
GCCGATATCGGGTATCGAGACGTGCTA,3.9
TTAGATATCGGGTATTGATTAGTGCTA,2.49
TTAGGCTTCGGGTTTCGGTTAGTGCTA,7.17
TTAGGTATCGGACTGCGTTAGTGCTAG,1.51
TTAGATCTCAGGCTCGATTAGTGCTAG,-0.333
TCATTTTTCTGATTGAAACTGTGCTAG,1.58
CGGAATTTCCCTCTGCTCCTGTGCTAG,0.714
GACGGACTGGGGTATCGGGGCGTGCTA,-0.12
GACGGGATCGGTTTCGGGACGTGCTAG,3.39
TTAGGACTGGGTATCGGTTGGTGCTAG,3.28
